# Experimental data gathered from unrelated publications.
# Parts stem from different laboratories: compare values within a part only. Positions count from the first letter of the parent shown.

# Set 1
# Target: ABI1, truncated, D143A, DHFR fusion (Arabidopsis thaliana)
# Method: DHFR PCA, deep sequencing
# Matrix: yeast
# Notes: methotrexate growth selection, single substitutions
# Added: (+)-ABA 0.032 µM
# Relative to: wild-type fitted maximum
# Direction: higher = stronger binding
# Starting sequence: PYL1, truncated, DHFR fusion (Arabidopsis thaliana); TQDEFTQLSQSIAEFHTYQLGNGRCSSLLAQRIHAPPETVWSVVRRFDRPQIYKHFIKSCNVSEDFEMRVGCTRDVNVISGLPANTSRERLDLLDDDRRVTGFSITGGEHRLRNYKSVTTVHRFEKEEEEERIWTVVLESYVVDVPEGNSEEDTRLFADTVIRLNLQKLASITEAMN
Variant,relative binding score [%]
A170K,46.3
R46M,3.74
E127N,41.7
A175F,-9.85
Y115V,-0.0431
R155Q,3.06
R32C,17.7
I172M,1.9
H55S,10.5
E109S,13.6
V76Y,5.43
S140D,-1.47
P50S,5.93
N61A,33.5
E127K,50.3
E128Y,12.5
V40I,-6.86
C72Y,-1.06
V142F,-1.07
T106C,12.3
D159F,-9.98
S9R,56

# Set 2
# Target: Prothrombin, mature alpha-thrombin (F2, Homo sapiens, UniProt P00734)
# Method: aptamer microarray, sandwich
# Molecule type: DNA with 2'F-ANA
# Matrix: in vitro
# Tested at: 200 nM
# Notes: whole 15-mer aptamer, many near background
# Added: Cy3 exosite-II aptamer, 400 nM
# Direction: higher = stronger binding
# Sequence: GGTTGGTGTGGTTGG
Modification,mean fluorescence intensity
2'F-ANA at 2 5 9 11 12 15,102 a.u.
2'F-ANA at 6 7 8 9 11 12 14 15,198 a.u.
2'F-ANA at 1 6 8 9 10 13 15,118 a.u.
2'F-ANA at 2 3 4 5 6 7 8 10 11 12,62.5 a.u.
2'F-ANA at 1 2 6 10 14 15,51.3 a.u.
2'F-ANA at 4 5 6 7 9 10 11 12 13 15,45.4 a.u.
2'F-ANA at 1 4 5 6 8 10 12 14,52 a.u.
2'F-ANA at 2 3 4 6 11 12 15,651 a.u.
2'F-ANA at 2 5 6 9 13,50.8 a.u.
2'F-ANA at 1 2 4 6 7 8 9,167 a.u.
2'F-ANA at 3 4 9 12 14,335 a.u.
2'F-ANA at 1 3 4 7 8 10 11 12 15,113 a.u.

# Set 3
# Target: CCNB3, cyclin fold, Cln2 fusion (human)
# Method: yeast growth competition, sequencing
# Matrix: yeast
# Notes: weak parent motif
# Relative to: not given
# Direction: higher = stronger binding
# Starting sequence: E2F1 docking peptide (human); PPVKRRLDLETDH; partner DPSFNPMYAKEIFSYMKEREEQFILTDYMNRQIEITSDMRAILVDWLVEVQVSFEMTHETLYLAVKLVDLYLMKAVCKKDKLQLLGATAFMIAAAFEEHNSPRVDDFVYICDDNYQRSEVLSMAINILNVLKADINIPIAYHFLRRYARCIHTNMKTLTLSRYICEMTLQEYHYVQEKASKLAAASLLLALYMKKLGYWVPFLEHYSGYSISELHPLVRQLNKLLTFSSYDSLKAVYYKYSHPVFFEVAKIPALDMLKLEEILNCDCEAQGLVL
Variant,normalised enrichment score
PPVKRRLDLETDI [H13I],0.696
PPVKRRLGLETDH [D8G],0.671
PPVKRRLDLETWH [D12W],-0.00883
PPYKRRLDLETDH [V3Y],0.185
PPVKRRLDLITDH [E10I],0.659
PPVKFRLDLETDH [R5F],0.281
PPVKRRLILETDH [D8I],0.454
PPVKRRLDLDTDH [E10D],1.03
PPVKRRLDLELDH [T11L],0.595
PPVKWRLDLETDH [R5W],0.279
FPVKRRLDLETDH [P1F],0.874
PPVKRRNDLETDH [L7N],0.432
PPHKRRLDLETDH [V3H],0.17
PPVKHRLDLETDH [R5H],-0.353
NPVKRRLDLETDH [P1N],0.268

# Set 4
# Target: Centromere-binding protein 1, full length, N-terminal tag (CBF1, Saccharomyces cerevisiae, UniProt P17106, residues 1-351)
# UniProt P17106, sequence (whole entry, looked up): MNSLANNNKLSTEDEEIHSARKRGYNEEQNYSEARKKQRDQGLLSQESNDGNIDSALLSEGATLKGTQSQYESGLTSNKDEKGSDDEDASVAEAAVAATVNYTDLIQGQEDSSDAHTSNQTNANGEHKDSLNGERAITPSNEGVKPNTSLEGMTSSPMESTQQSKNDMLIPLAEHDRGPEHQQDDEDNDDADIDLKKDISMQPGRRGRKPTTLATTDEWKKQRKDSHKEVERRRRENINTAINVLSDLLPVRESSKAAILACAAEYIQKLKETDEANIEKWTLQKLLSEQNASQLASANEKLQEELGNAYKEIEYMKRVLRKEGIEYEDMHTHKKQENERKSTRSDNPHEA
# Method: protein-binding microarray
# Molecule type: double-stranded DNA, one strand shown
# Matrix: in vitro
# Tested at: 0.8 µM
# Notes: whole 60-bp probe, no competitor
# Direction: higher = stronger binding
Sequence,fluorescence intensity
GAATGTCACCATGGTCAGATGACCATATTATTTTAGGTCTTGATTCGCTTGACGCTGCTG,6170 a.u.
GAAGATCCGGAATTAAACGTGGACCCTCGAGCGTAGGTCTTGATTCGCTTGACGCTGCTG,510 a.u.
CTAGTATTCATTTCTCACCTGCCAATGCAAGAGTTCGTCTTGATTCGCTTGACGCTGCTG,566 a.u.
GAATTTGCCTCAATGAACGTGTGTAATGGCGGTTAGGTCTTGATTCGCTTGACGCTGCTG,531 a.u.
CTATAAACAAAATGCCACGTTCTGGCCTGATATTTCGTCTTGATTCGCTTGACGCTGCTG,545 a.u.
CTACTCGCATCCGGGCACGCTTTGTGAAATTCATTCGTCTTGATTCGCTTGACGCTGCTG,573 a.u.
GAACGTGGTGGCGCTGGTGACGAAGAGGATCGATAGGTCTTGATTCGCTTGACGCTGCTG,549 a.u.
TGTACGAAGCTATCAGGTGAGGATATAGTAGTTAGGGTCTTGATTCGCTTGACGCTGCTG,712 a.u.
GAATTGCTAAATGATCACGAAAAATGTTTTTTTTAGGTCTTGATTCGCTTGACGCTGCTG,556 a.u.
CTAGAATTTGAATAGAACGTGACTCAACAGAAATTCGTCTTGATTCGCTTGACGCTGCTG,2430 a.u.
GAATCTATAATTATGCAGGTGATGGGGTATCGATAGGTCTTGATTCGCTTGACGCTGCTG,710 a.u.
CTAATTTTTTTCTGTCAGGTGCGGCCCATCATCTTCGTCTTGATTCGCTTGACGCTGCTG,1110 a.u.
GAACTACACGAGTCGCACGAGGACCCTGAAAAATAGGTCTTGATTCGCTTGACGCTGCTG,718 a.u.
CTATATAAATATAGTCAGATGAGTGCTTCATTTTTCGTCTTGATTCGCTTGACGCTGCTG,584 a.u.

# Set 5
# Target: RING finger protein unkempt homolog, zinc fingers 1-6, GST-SBP tag (UNK, Homo sapiens, UniProt Q9C0B0, residues 30-357)
# UniProt Q9C0B0, sequence (30-357, looked up): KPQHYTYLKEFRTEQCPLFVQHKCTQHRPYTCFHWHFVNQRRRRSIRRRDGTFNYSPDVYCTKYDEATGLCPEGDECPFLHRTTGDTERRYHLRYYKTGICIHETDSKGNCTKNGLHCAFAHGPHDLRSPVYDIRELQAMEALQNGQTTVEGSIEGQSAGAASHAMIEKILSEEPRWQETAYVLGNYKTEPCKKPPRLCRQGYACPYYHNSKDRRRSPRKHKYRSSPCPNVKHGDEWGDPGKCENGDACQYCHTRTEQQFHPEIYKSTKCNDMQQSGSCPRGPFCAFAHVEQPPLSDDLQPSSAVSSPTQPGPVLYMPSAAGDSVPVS
# Method: RNA Bind-n-Seq
# Molecule type: RNA
# Matrix: in vitro
# Tested at: not given
# Notes: RNA with constant flanks, ends assumed
# Relative to: input RNA pool
# Direction: higher = stronger binding
Sequence,bound/input enrichment [ratio]
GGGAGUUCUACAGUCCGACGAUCUUACAAAGCCAUCUUUACAUGCAUUAAACGAGGGCUACAACAAUAUUGUUUUACAAAUACCCGCACUUUUUUUUCUGUUAUGUACUUAGUGUUAGAGGGUCAAAAUAAUCUUUCUGCUUACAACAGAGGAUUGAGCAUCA,1.06
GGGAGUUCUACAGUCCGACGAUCACAAAUUCUAAGUCGGAGGAAGACAAGCAGCUAGCCAAUUCUUUAGAGAGCGUAGGGCCAACCGAUUACAUUCUCCCAAGCUGUGGGAUUAUUGUGUCAGCACCUCGAUUAGGCAGUCGGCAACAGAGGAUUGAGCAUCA,0.438
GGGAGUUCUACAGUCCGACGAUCCCGUCUAUAUAUGUGUGAAUAAUGUAAGUAUUUUACAGCAUGUUGAUUUUUAAAUUAACGCCGUAAAUGCUGUAAAAUAGAUUUAUAUUCAGUUAACCGCUUUCAGUUGAUUUUUUGAAACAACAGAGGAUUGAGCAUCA,0.419
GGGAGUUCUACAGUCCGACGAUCUCAAUAGAAGAGGAAAGGAAUGUCCCAUUGGCAACUGACUUGAUCCGAAUAAGUCAAUACCGGUUUACGGUUUCAGACUUGAUGAGAAUGGAAAAGAUUGUAUUGGAGAAGGUGUGUUGGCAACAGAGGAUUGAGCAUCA,0.14
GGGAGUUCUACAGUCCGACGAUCGGCUCAUUUGUAAAAUUGUCCUAAUUUUUCCUAGCUUUCAGCCAUUAGAAACUCUUUUAACCGUUCCUUUUGAGUUGUGAGCUCUUCUUCUGUAGCCCUGAAGGGACACUGUAUUCUGUACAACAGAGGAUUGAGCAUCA,1.94
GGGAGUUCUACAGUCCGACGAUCUUUGCUCGACACACGGCUCUCAAGCCCCACGCAUGUCCUCGAUGCGGUAAGGGCUUCAAGCACCGCUUCAACUUGGCUAACCACCUGCGCUCACACACUGGUGAACGACCCUACCGAUGCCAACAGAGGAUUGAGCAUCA,0.137
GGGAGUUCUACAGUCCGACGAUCCCAAGUGAUUCAUUCCAAGGACAGGCAGCCCAGUCUGGUGUUUGGAAUGACGACAGUAUGUCCGGGCCUAGUCAAAAUUUUGAAGCUGAGUCAAUUCAAGAUAAUGCGCAUAUGGCAGAGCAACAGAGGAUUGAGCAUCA,0.274
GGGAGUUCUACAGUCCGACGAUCCGCUGCCGUGUGGGCCAAUGGGUGCGCAUGGAGAAUGUAACAGUGCUGGGUGAAGAUGUCACCGUUAAUGAUGAACUGUACCUCAAUGGAGCCAGCGUGCUGCCCCACAAGUCUAUCGGGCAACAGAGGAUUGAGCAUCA,0.114

# Some of these lines once more (set 1):
Variant,relative binding score [%]
P50S,5.93
N61A,33.5
E127K,50.3
E128Y,12.5
V40I,-6.86
C72Y,-1.06
